{"data": "Results collected from several papers", "note": "A part holds a random share of what one study measured. Changes are numbered by the printed parent chain."}
{"data": "Series 1", "target": "CCNF, cyclin fold, Cln2 fusion (human)", "method": "yeast growth competition, sequencing", "medium": "yeast", "notes": "strong parent motif", "baseline": "not given", "reading": "higher = stronger binding", "parent": "INSM1 docking peptide (human); PKAIRKLHFEDEV; partner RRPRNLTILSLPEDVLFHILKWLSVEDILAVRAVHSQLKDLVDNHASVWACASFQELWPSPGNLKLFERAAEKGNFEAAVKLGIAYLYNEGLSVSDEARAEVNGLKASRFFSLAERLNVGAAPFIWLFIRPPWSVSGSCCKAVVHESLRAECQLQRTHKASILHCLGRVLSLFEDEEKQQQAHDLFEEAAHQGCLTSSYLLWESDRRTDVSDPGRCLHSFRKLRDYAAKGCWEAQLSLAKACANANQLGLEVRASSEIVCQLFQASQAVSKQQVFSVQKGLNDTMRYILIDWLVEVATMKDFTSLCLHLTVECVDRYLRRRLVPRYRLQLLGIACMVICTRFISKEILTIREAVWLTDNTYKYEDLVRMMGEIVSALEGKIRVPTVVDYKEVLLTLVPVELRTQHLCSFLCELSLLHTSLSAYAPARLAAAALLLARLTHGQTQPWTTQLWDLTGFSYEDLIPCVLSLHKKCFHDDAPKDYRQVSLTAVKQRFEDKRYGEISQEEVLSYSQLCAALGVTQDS"}
{"Substitution": "K2D", "normalised enrichment score": 6.33}
{"Substitution": "E10N", "normalised enrichment score": 7.07}
{"Substitution": "E10C", "normalised enrichment score": 7.52}
{"Substitution": "D11F", "normalised enrichment score": 7.68}
{"Substitution": "E12V", "normalised enrichment score": 7.67}
{"Substitution": "I4P", "normalised enrichment score": 7.21}
{"Substitution": "K2E", "normalised enrichment score": 6.36}
{"Substitution": "L7M", "normalised enrichment score": 0.0275}
{"Substitution": "D11L", "normalised enrichment score": 7.9}
{"Substitution": "L7S", "normalised enrichment score": 0.502}
{"Substitution": "D11A", "normalised enrichment score": 7.9}
{"Substitution": "L7A", "normalised enrichment score": 0.156}
{"Substitution": "I4Q", "normalised enrichment score": 8.18}
{"Substitution": "E12I", "normalised enrichment score": 7.97}
{"data": "Series 2", "target": "ABI1, truncated, D143A, DHFR fusion (Arabidopsis thaliana)", "method": "DHFR PCA, deep sequencing", "medium": "yeast", "notes": "methotrexate growth selection, single substitutions", "added": "(+)-ABA 0.032 µM", "baseline": "wild-type fitted maximum", "reading": "higher = stronger binding", "parent": "PYL1, truncated, DHFR fusion (Arabidopsis thaliana); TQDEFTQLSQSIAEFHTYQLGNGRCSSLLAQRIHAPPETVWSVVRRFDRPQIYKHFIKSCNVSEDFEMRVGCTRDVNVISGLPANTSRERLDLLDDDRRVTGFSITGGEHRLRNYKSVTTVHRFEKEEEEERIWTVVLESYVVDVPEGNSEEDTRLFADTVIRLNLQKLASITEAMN; partner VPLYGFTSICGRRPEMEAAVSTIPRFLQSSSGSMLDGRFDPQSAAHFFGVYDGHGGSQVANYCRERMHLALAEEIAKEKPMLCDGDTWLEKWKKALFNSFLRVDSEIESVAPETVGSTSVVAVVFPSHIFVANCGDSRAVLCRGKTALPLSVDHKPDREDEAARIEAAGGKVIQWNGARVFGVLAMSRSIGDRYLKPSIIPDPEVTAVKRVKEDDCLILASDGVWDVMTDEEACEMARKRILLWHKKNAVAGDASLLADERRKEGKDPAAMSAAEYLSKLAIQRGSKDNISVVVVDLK"}
{"Substitution": "L20I", "relative binding score [%]": 35.6}
{"Substitution": "E151V", "relative binding score [%]": 38.1}
{"Substitution": "E174A", "relative binding score [%]": -2.29}
{"Substitution": "L91A", "relative binding score [%]": 17.4}
{"Substitution": "L156S", "relative binding score [%]": 5.17}
{"Substitution": "L112R", "relative binding score [%]": -3.85}
{"Substitution": "P37N", "relative binding score [%]": 4.13}
{"Substitution": "G21W", "relative binding score [%]": -0.234}
{"Substitution": "T6Q", "relative binding score [%]": 52.1}
{"Substitution": "R163F", "relative binding score [%]": -23.5}
{"Substitution": "R69C", "relative binding score [%]": 19.7}
{"Substitution": "R49N", "relative binding score [%]": 2.09}
{"data": "Series 3", "target": "Histone acetyltransferase KAT6A, both winged helices, GST fusion (KAT6A, Homo sapiens, UniProt Q92794, residues 1-181)", "method": "protein binding microarray", "form": "double-stranded DNA, one strand shown", "medium": "in vitro", "concentration": "not given", "notes": "8-mer, flanks averaged, mean of 2 arrays, mostly near background", "baseline": "not given", "reading": "higher = stronger binding", "Construct (chain)": "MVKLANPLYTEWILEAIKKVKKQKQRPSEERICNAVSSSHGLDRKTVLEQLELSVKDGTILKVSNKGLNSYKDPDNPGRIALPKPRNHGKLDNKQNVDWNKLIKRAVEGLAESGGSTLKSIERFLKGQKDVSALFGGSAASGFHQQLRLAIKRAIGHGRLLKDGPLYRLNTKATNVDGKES"}
{"Strand": "ACTTTATA", "E-score": -0.0185}
{"Strand": "AGCAGAAT", "E-score": -0.0682}
{"Strand": "GCGTGCAC", "E-score": 0.0643}
{"Strand": "CTGTGCCC", "E-score": 0.015}
{"Strand": "TAGCGGAA", "E-score": 0.176}
{"Strand": "ACGGGGAA", "E-score": 0.205}
{"Strand": "CATGATAA", "E-score": -0.079}
{"Strand": "AACTGTTG", "E-score": -0.13}
{"Strand": "GTCGGTCA", "E-score": 0.0756}
{"Strand": "GCACAAAA", "E-score": 0.027}
{"Strand": "CACGATTC", "E-score": 0.0656}
{"Strand": "GGCAGAGA", "E-score": -0.0185}
{"data": "Series 4", "target": "Centromere-binding protein 1, full length, His-tagged (CBF1, Saccharomyces cerevisiae, UniProt P17106, residues 1-351)", "method": "competition protein-binding microarray", "form": "double-stranded DNA, one strand shown", "medium": "in vitro", "concentration": "2 µM", "notes": "whole 60-bp probe, lowest competitor level", "added": "Pho4 competitor, 0.05 µM", "reading": "higher = stronger binding", "sequence of UniProt P17106 (whole entry, looked up)": "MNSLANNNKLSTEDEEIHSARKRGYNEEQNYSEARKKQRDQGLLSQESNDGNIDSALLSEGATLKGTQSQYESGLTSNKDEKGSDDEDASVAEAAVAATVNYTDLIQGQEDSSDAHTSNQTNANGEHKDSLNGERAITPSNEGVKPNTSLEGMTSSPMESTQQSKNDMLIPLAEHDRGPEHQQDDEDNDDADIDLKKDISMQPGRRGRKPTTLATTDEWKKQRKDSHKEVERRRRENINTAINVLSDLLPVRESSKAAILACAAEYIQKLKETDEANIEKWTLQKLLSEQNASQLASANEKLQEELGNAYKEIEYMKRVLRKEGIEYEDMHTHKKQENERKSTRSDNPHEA"}
{"Strand": "GTCTTGTCTCATTGTAGAGTGGGTGTCCCCACTTCAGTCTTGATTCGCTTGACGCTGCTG", "fluorescence intensity": "81.6 a.u."}
{"Strand": "CGTCCTAGTGATTGGACTGTGGGTGCCATGAGGAAGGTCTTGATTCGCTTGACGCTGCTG", "fluorescence intensity": "74.2 a.u."}
{"Strand": "CGTCACTTGCCAGGTCACATGGGCAAATGGCCAGCGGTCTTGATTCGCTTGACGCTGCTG", "fluorescence intensity": "1690 a.u."}
{"Strand": "AAATTACTAAGTTTTCACGTGTTATACCCCGTATGAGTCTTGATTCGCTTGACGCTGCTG", "fluorescence intensity": "1120 a.u."}
{"Strand": "CTTGGGGTCTAGAAGCTCGTGTTCCATTCTTAGACAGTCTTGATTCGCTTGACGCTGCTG", "fluorescence intensity": "80.7 a.u."}
{"Strand": "GATGGATTCAGTCCACACATGAGATTCGCAGGATGTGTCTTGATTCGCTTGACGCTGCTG", "fluorescence intensity": "73.3 a.u."}
{"Strand": "AAACCACAGTACTGTCACACTCTACTACCATCCAGTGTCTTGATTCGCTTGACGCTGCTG", "fluorescence intensity": "72.9 a.u."}
{"Strand": "GTCTGAAGTAAAAAGCACGATGATCGTAGTCCACTTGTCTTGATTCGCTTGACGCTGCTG", "fluorescence intensity": "95.7 a.u."}
{"Strand": "CATACCCAACCTTGTCACTCTACTTAAGATATTTGTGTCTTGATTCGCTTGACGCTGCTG", "fluorescence intensity": "83.1 a.u."}
{"Strand": "CTTTCCCGATCTTGGACCGTGGGTGTAGCACATTTGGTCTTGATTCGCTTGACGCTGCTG", "fluorescence intensity": "52.4 a.u."}
